Results pooled from the literature.
Organism: Staphylococcus aureus

Compound	assay	test system	conditions	how to read	MIC
Cc1cc([N+](=O)[O-])ccc1NC(=O)CSc1nc2ccccc2c(=O)n1-c1ccc(S(N)(=O)=O)cc1	–	MRSA	24 h, 37 °C	–	5 µg/mL
CCCCCCCCCCCCCCN1C(=O)/C(=N\NC(=N)N)c2cc(C)ccc21	broth microdilution	29213	18 h, 37 °C	–	> 192 µg/mL
C/C(=N\Nc1nc(C)cs1)c1ccc2c(c1)sc1nc(=O)c(C#N)cn12	broth microdilution	–	–	–	< 39 µg/mL
CN(C)c1cc(CNCc2ccccc2)c(O)c2c1C[C@H]1C[C@H]3[C@H](N(C)C)C(O)=C(C(N)=O)C(=O)[C@@]3(O)C(O)=C1C2=O	–	MRSA 5, Tet M ribosome protection	–	–	0.5 µg/mL
c1ccc(CN2CCOCCOCCN(CCCCCCCCCCN3CCOCCOCCN(CCCCCCCCCCN4CCOCCOCCN(Cc5ccccc5)CCOCCOCC4)CCOCCOCC3)CCOCCOCC2)cc1	microbial growth	MRSA USA300	drug-resistant strain	–	6 µM
S=c1n(CN2CCN(Cc3ccccc3)CC2)nc(C23CC4CC(CC(C4)C2)C3)n1-c1ccccc1	two-fold dilution	IFO 3060	24 h, 36 °C	–	8 µg/mL
C=CCO[C@H]1[C@H](O)[C@@H](N)[C@@H](O[C@H]2[C@H](O[C@@H]3O[C@H](CO)[C@@H](O[C@H]4O[C@@H](CN)[C@@H](O)[C@H](O)[C@H]4N)[C@H]3O)[C@@H](O)[C@H](N)C[C@@H]2N)O[C@@H]1CO	broth microdilution	MRSA isolate AG 045	–	–	8 to 16 µg/mL
CC(C)=CCc1cc([C@@H]2CC(=O)c3ccc(O)c(CC=C(C)C)c3O2)c(O)c(CC=C(C)C)c1O	–	ATCC 25923	–	–	128 µg/mL
CC1CCN(Cc2cc(N(C)C)c3c(c2O)C(=O)C2=C(O)[C@]4(O)C(=O)C(C(N)=O)=C(O)[C@@H](N(C)C)[C@@H]4C[C@@H]2C3)CC1	microbial growth, broth dilution	–	–	–	0.25 µg/mL
CCn1cc(/C=C/c2ccc3ccccc3[n+]2CC)c2ccccc21	–	1466	–	–	4 µg/mL
CCCCCCCCCCCc1nc2ccccc2c(=O)n1N	broth microdilution	RN6390B	–	–	> 100 µM
CC1CCN(CCCN2/C(=C/c3cc(/C=C/c4c[nH]c5ccccc45)[n+](C)c4ccccc34)Sc3ccccc32)CC1	microbial growth, broth dilution	ATCCBAA1720 MRSA	–	–	16 µg/mL
CO[C@H]1[C@H](O)[C@@H](N)[C@@H](O[C@H]2[C@H](O[C@@H]3O[C@H](CO)[C@@H](O[C@H]4O[C@@H](CN)[C@@H](O)[C@H](O)[C@H]4N)[C@H]3O)[C@@H](O)[C@H](N)C[C@@H]2N)O[C@@H]1CO	broth microdilution	MRSA isolate AG 042	–	–	32 µg/mL
CCCCN(CCCC)CC(O)COc1c2ccoc2c(OC)c2oc(CC)cc(=O)c12 (stereo not shown)	microbial growth, broth dilution	ATCC29	19 h	–	256 µg/mL
CN(Cc1cc(N(C)C)c2c(c1O)C(=O)C1=C(O)[C@]3(O)C(=O)C(C(N)=O)=C(O)[C@@H](N(C)C)[C@@H]3C[C@@H]1C2)CC(C)(C)C	–	MRSA 5, Tet M ribosome protection	–	–	0.5 µg/mL
CC[C@H](C)[C@@H]1NC(=O)[C@@H]([C@@H](C)O)NC(=O)CNC(=O)[C@H](CC(=O)O)NC(=O)CNC(=O)[C@H](CC(=O)O)NC(=O)CNC(=O)[C@H]2CCCCN2C(=O)[C@@H](NC(=O)[C@H](CC(=O)O)NC(=O)/C=C/CCCCCCCCCC(C)C)CNC(=O)[C@@H]2CCCN2C1=O	–	MRSA USA300	together with: Ca2+ 1 mM	–	8 µg/mL
CCCCO[C@H]1[C@H](O)[C@@H](N)[C@@H](O[C@H]2[C@H](O[C@@H]3O[C@H](CO)[C@@H](O[C@H]4O[C@@H](CN)[C@@H](O)[C@H](O)[C@H]4N)[C@H]3O)[C@@H](O)[C@H](N)C[C@@H]2N)O[C@@H]1CO	broth microdilution	MRSA isolate AG 045	–	–	16 µg/mL

Compound	assay	test system	conditions	how to read	MIC
CCc1nc(N)nc(N)c1C#CC(C)c1cccc(-c2cc(C)nc(C)c2)c1 (racemic)	broth microdilution	ATCC 43300	18 h, 37 °C	–	0.156 µg/mL
CC(CCCOC(=O)CCC[N+](C)(C)C)C1CCC2C3CCC4CC(OC(=O)CCC[N+](C)(C)C)CCC4(C)C3CCC12C (stereo not shown)	–	ATCC 29213	16 h, 37 °C	–	< 0.5 µg/mL
COC1CCN(Cc2cc(N(C)C)c3c(c2O)C(=O)C2=C(O)[C@]4(O)C(=O)C(C(N)=O)=C(O)[C@@H](N(C)C)[C@@H]4C[C@@H]2C3)CC1	microbial growth, broth dilution	–	–	–	1 µg/mL
COc1cc(Cc2cnc(N)nc2N)cc(/C=C/C(=O)N2N=Cc3ccccc3C2c2ccccc2)c1OC (stereo not shown)	microbial growth, broth dilution	ATCC29213	–	–	0.125 µg/mL
CCn1cc[n+](CC)[c]1[Au-][Cl]	broth dilution	MRSA DSM 11822	20 h, 37 °C	–	2.8 µM
Oc1c(Br)cc(Br)c2nc3cc(C(F)(F)F)ccc3nc12	broth microdilution	MRSA 44	–	–	0.05 µM
CNC(CC(C)C)C(=O)NC1C(=O)NC(CC(N)=O)C(=O)NC2C(=O)NC3C(=O)NC(C(=O)NC(C(=O)O)c4cc(O)cc(O)c4-c4cc3ccc4O)C(O)c3ccc(c(Cl)c3)Oc3cc2cc(c3OC2OC(CO)C(O)C(O)C2OC2CC(C)(NC(=O)CCCCCCCC[N+](C)(C)C)C(O)C(C)O2)Oc2ccc(cc2Cl)C1O (stereo not shown)	agar dilution	MRSA clinical isolate MRSA3	–	–	32 µg/mL
CCCCCCCCCc1nc2ccccc2c(=O)n1OC	broth microdilution	RN6390B	–	–	> 100 µM
CCn1cc(C(=O)NCCNCCO)c(=O)c2cc(OCc3ccc(C(C)(C)C)cc3)c(Cl)cc21	–	ATCC 43300 MRSA	–	≥80% growth inhibition	< 0.25 µg/mL
Oc1cc(F)ccc1Oc1ccccc1	microbial growth, broth dilution	–	–	–	39 µM
Cc1cc(=O)nc(NC(=O)NCCCCCCNC(=O)NCCCCCCNC(=O)OCCOCCOCCOCCOCCOCCOCC(=O)N[C@@H](CC(C)C)C(=O)N[C@@H](CCCCN)C(=O)N[C@@H](CC(C)C)C(=O)N[C@@H](CC(C)C)C(=O)N[C@@H](CCCCN)C(=O)N[C@@H](CCCCN)C(=O)N[C@@H](CC(C)C)C(=O)N[C@@H](CC(C)C)C(=O)N[C@@H](CCCCN)C(=O)N[C@@H](CCCCN)C(=O)N[C@@H](CC(C)C)C(=O)N[C@@H](CC(C)C)C(=O)N[C@@H](CCCCN)C(=O)N[C@@H](CC(C)C)C(=O)N[C@@H](CC(C)C)C(N)=O)[nH]1	–	MSSA RN 4220, RPMI medium	24 h, 37 °C	–	3.7 µM
CN(C)Cc1cc(N(C)C)c2c(c1O)C(=O)C1=C(O)[C@]3(O)C(=O)C(C(N)=O)=C(O)[C@@H](N(C)C)[C@@H]3C[C@@H]1C2	microbial growth, broth dilution	–	–	–	1 µg/mL
CCCCc1ccc(N2C(=O)/C(=N\NC(=N)N)c3cc(F)ccc32)cc1	microbial growth, broth dilution	–	18 h	–	12 µg/mL
CNC(CC(C)C)C(=O)NC1C(=O)NC(CC(N)=O)C(=O)NC2C(=O)NC3C(=O)NC(C(=O)NC(C(=O)O)c4cc(O)cc(O)c4-c4cc3ccc4O)C(O)c3ccc(c(Cl)c3)Oc3cc2cc(c3OC2OC(CO)C(O)C(O)C2OC2CC(C)(NC(=O)CCCCCCCC[n+]3ccccc3)C(O)C(C)O2)Oc2ccc(cc2Cl)C1O (stereo not shown)	agar dilution	MRSA clinical isolate MRSA4	–	–	64 µg/mL
O=C(c1ccc[nH]1)c1ccccc1O	microbial growth, broth dilution	NCTC8325	20 h	–	> 64 µg/mL
CC[P+](CC)(CC)[Au-][S][C@@H]1O[C@H](COC(C)=O)[C@H](OC(C)=O)[C@H](OC(C)=O)[C@H]1OC(C)=O	broth microdilution	JE2 (USA300)	–	–	0.04 µM
CCCCCCCc1nc2ccccc2c(=O)n1OC	broth microdilution	RN6390B	–	–	> 100 µM

Some of these lines once more:
Compound	assay	test system	conditions	how to read	MIC
CNC(CC(C)C)C(=O)NC1C(=O)NC(CC(N)=O)C(=O)NC2C(=O)NC3C(=O)NC(C(=O)NC(C(=O)O)c4cc(O)cc(O)c4-c4cc3ccc4O)C(O)c3ccc(c(Cl)c3)Oc3cc2cc(c3OC2OC(CO)C(O)C(O)C2OC2CC(C)(NC(=O)CCCCCCCC[n+]3ccccc3)C(O)C(C)O2)Oc2ccc(cc2Cl)C1O (stereo not shown)	agar dilution	MRSA clinical isolate MRSA4	–	–	64 µg/mL
COc1cc(Cc2cnc(N)nc2N)cc(/C=C/C(=O)N2N=Cc3ccccc3C2c2ccccc2)c1OC (stereo not shown)	microbial growth, broth dilution	ATCC29213	–	–	0.125 µg/mL
CCCCCCCCCCCc1nc2ccccc2c(=O)n1N	broth microdilution	RN6390B	–	–	> 100 µM
O=C(c1ccc[nH]1)c1ccccc1O	microbial growth, broth dilution	NCTC8325	20 h	–	> 64 µg/mL
S=c1n(CN2CCN(Cc3ccccc3)CC2)nc(C23CC4CC(CC(C4)C2)C3)n1-c1ccccc1	two-fold dilution	IFO 3060	24 h, 36 °C	–	8 µg/mL
